Assay results collected from several papers.
Each line is one published result; not all experiments were run side by side.
Target: Bifunctional epoxide hydrolase 2 (EPHX2, Homo sapiens, UniProt P34913)
Sequence of UniProt P34913 (whole entry, looked up): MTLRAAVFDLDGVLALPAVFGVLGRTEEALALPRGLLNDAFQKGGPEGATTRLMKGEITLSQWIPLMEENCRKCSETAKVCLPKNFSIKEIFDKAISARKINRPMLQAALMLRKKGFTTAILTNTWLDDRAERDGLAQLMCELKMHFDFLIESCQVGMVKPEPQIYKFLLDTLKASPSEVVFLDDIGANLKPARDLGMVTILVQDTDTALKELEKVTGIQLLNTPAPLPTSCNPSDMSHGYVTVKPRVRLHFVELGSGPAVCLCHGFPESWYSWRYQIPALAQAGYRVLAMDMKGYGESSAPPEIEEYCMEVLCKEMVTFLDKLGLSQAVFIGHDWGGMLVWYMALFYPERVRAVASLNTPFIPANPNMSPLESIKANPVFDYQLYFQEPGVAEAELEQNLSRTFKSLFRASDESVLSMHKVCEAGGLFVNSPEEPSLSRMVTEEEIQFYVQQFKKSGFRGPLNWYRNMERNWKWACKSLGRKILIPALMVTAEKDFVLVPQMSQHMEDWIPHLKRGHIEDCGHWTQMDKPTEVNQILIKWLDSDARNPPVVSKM
Observed: enzyme activity
Mode: inhibitor

Structure (SMILES) | technique | pH | notes | measurement | result
CC=Cc1ccc(OC(C)C(c2ccc(O)c(OC)c2)c2ccc(O)c(C(=O)CCCCCCCCc3ccc(O)c(O)c3)c2O)c(OC)c1 (centres unmarked) | – | – | – | Ki | 23300 nM
O=C(/C=C/c1ccc(O)c(O)c1)NCCc1ccc(O)cc1 | – | – | – | Ki | 1800 nM
Cc1ccccc1CN1CCC(C(=O)Nc2ccc(-c3nc(-c4ccccc4)cs3)cc2)CC1 | fluorescence | pH 7.4 | with preincubation | IC50 | 163 nM
CC(C)=CC(=O)O[C@H]1c2c(ccc3ccc(=O)oc23)OC(C)(C)[C@H]1OC(=O)C=C(C)C | fluorescence | – | – | Ki | 1100 nM
CC(C)(O)C1=CC2Oc3c(ccc(O)c3C(=O)CCCCCCCCc3ccc(O)c(O)c3)C2(C)CC1 (centres unmarked) | – | – | – | Ki | 23100 nM
CC12CC3CC(C)(C1)CC(NC(=O)Nc1ccc(C(=O)N4CCC[C@@H](C(N)=O)C4)cc1)(C3)C2 | – | – | – | IC50 | 0.31 nM
O=C(Nc1ccc(-c2nc(-c3ccccc3)cs2)cc1)C1CCN(Cc2ccc(F)cc2)CC1 | fluorescence | pH 7.4 | with preincubation | IC50 | 10.7 nM
CC12CC3CC(C)(C1)CC(NC(=O)Nc1ccc(C(=O)N4CCC(C(=O)NC5CC5)CC4)cc1)(C3)C2 | – | – | – | IC50 | 1.14 nM
O=C(NCCc1ccc(O)cc1)c1cc2cc(O)c(O)cc2c(-c2ccc(O)c(O)c2)c1C(=O)NCCc1ccc(O)cc1 | – | – | – | Ki | 6900 nM
O=C(Nc1ccc(-c2nc(-c3ccccc3)cs2)cc1)C1CCN(Cc2ccccc2Cl)CC1 | fluorescence | pH 7.4 | with preincubation | IC50 | 2040 nM
CC12CC3CC(C)(C1)CC(NC(=O)Nc1ccc(C(=O)N4CCC[C@@H](C(N)=O)C4)cc1F)(C3)C2 | – | – | – | IC50 | 0.08 nM

For quick reference, copied from above:
Structure (SMILES) | technique | pH | notes | measurement | result
CC12CC3CC(C)(C1)CC(NC(=O)Nc1ccc(C(=O)N4CCC[C@@H](C(N)=O)C4)cc1F)(C3)C2 | – | – | – | IC50 | 0.08 nM
